{"data": "Measured values of several laboratories", "cell line": "HeLa", "note": "Compare with care: the assays were run in different laboratories. Several values in a cell are separate wells, animals, samples, runs or records. pEC50, pIC50: −log10 of the molar value."}
{"SMILES": "C#CCCCC[C@H](C)C[C@@H](C)C(=O)N(C)[C@@H](C)C(=O)N1CCC[C@H]1C(=O)N(C)[C@H](C(=O)N(C)[C@H](C(=O)OC)C(C)C)C(C)C", "observed": "cell growth or viability", "method": "SRB", "endpoint": "pIC50", "result": "5.46 and 5.55 and 5.50"}
{"SMILES": "CC(N)C(O)CCCCCCCCCCCCCCC(=O)CCCCCCCC(O)C(C)N (stereo not shown)", "observed": "cell growth or viability", "endpoint": "pIC50", "result": "< 4.30"}
{"SMILES": "Cc1ccc2c(Cl)cc(Cl)c([O-])c2n1.Cc1ccc2c(Cl)cc(Cl)c([O-])c2n1.[Co+2].c1cnc2c(c1)c1nccnc1c1cccnc12", "observed": "cell growth or viability", "method": "MTT", "time": "48 h", "endpoint": "pIC50", "result": 7.00}
{"SMILES": "CNC(=S)NCCCC[C@H](NC(=O)CCc1ccccc1)C(=O)N[C@@H](CCCNC(=N)N)C(=O)N[C@@H](CC1CCCCC1)C(=O)N[C@H](CCCCN)C(=O)N[C@@H](CC1CCCCC1)C(=O)N[C@H](CCCNC(=N)N)C(=O)N[C@@H](CC1CCCCC1)C(N)=O", "observed": "cell growth or viability", "method": "MTT", "time": "72 h", "endpoint": "pEC50", "result": 4.85}
{"SMILES": "NC(=O)c1cccc2c3c([nH]c12)CCC(N)C3 (stereo not shown)", "observed": "cell growth or viability", "endpoint": "pIC50", "result": 6.82}
{"SMILES": "Cc1cc(Oc2nc(N3CC[C@@H](c4ccncc4)C3)ncc2F)[nH]n1", "observed": "cell proliferation", "endpoint": "pIC50", "result": "< 4.00"}
{"SMILES": "Cc1cc(=O)oc2cc(OCCCCCC[Se]C#N)ccc12", "observed": "cell growth or viability", "method": "SRB", "endpoint": "GI50", "result": "3 µM"}
{"SMILES": "C#CCCCC[C@H](C)C[C@@H](C)C(=O)N(C)[C@H](C(=O)N(C)[C@@H](Cc1ccccc1)C(=O)N1CCC[C@H]1C(=O)N1CCC[C@H]1C(C)=O)C(C)C", "observed": "cell growth or viability", "method": "SRB", "endpoint": "pIC50", "result": "5.51 and 5.52 and 5.49"}
{"SMILES": "CC[C@H](C)[C@@H]([C@@H](CC(=O)N1CCC[C@H]1[C@H](OC)[C@@H](C)C(=O)N[C@H](C)[C@@H](O)c1ccccc1)OC)N(C)C(=O)[C@@H](NC(=O)[C@@H](NC)C(C)C)C(C)C", "observed": "cell proliferation", "method": "MTT", "setting": "with transthyretin", "endpoint": "pIC50", "result": 8.96}
{"SMILES": "CC(C)=CCc1c(O)cc2c(c1O)C(=O)CC(c1ccc(O)cc1)O2 (stereo not shown)", "observed": "cell growth or viability", "method": "MTT", "tested at": "25 µM", "time": "48 h", "endpoint": "inhibition", "result": "49%"}
{"note": "For quick reference, copied from above:"}
{"SMILES": "Cc1cc(Oc2nc(N3CC[C@@H](c4ccncc4)C3)ncc2F)[nH]n1", "observed": "cell proliferation", "endpoint": "pIC50", "result": "< 4.00"}
{"SMILES": "Cc1cc(=O)oc2cc(OCCCCCC[Se]C#N)ccc12", "observed": "cell growth or viability", "method": "SRB", "endpoint": "GI50", "result": "3 µM"}
